Published values from different studies.
A part holds a random share of what one study measured.

Sample 1
Target: Histone acetyltransferase KAT6A, both winged helices, GST fusion (KAT6A, Homo sapiens, UniProt Q92794, residues 1-181)
Technique: protein binding microarray
Molecule type: double-stranded DNA, one strand shown
Sample: in vitro
Tested at: not given
Setting: 8-mer, flanks averaged, mean of 2 arrays, mostly near background
Baseline: not given
Direction: higher = stronger binding
Construct (chain): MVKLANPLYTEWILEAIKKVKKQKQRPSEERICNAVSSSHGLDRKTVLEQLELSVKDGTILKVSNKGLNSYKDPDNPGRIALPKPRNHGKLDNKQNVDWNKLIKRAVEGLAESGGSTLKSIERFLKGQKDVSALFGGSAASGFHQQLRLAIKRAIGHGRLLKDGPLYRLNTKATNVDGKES
Sequence	E-score
GTGAGGAA	-0.0407
CAAACGAC	-0.00441
CTATTAAG	-0.126

Sample 2
Target: Sal-like protein 4, full length isoform A (SALL4, Homo sapiens, UniProt Q9UJQ4, residues 1-1053)
Sequence of UniProt Q9UJQ4 (whole entry, looked up): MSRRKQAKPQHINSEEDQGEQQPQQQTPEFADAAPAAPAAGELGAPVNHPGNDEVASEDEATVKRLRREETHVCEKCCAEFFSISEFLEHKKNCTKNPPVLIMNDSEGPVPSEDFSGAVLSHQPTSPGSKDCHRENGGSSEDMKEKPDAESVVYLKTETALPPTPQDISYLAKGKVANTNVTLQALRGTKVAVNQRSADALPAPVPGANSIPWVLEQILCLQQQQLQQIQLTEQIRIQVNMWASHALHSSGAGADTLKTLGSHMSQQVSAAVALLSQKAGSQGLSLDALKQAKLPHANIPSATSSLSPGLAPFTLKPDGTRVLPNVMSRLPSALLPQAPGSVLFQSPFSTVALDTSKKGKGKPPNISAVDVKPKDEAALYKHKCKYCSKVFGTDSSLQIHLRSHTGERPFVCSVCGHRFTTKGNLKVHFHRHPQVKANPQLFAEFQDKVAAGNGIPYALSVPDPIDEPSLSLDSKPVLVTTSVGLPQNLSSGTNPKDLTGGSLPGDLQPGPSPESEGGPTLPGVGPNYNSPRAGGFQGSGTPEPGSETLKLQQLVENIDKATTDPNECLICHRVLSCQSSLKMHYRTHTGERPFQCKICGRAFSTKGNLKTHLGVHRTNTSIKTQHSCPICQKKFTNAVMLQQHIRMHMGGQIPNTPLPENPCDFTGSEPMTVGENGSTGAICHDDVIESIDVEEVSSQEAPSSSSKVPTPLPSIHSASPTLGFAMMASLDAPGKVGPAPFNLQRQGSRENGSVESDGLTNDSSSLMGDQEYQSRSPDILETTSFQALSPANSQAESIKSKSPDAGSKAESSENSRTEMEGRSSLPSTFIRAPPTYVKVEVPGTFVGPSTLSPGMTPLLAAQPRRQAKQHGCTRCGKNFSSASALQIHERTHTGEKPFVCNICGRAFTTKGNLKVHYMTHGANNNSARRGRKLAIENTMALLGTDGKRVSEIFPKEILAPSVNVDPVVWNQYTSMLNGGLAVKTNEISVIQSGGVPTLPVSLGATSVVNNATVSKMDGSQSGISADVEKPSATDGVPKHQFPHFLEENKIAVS
Technique: universal PBM
Molecule type: double-stranded DNA, one strand shown
Sample: in vitro
Tested at: 600 nM
Setting: 8-mer, flanks averaged, mean of replicates
Direction: higher = stronger binding
Sequence	E-score
CCGCTAAC	-0.212
CATAAATG	0.32
GGTCTGTA	-0.0715
CATAGCGC	0.124

Other studies, line by line
F2 mature alpha-thrombin: Prothrombin, mature alpha-thrombin (F2, Homo sapiens, UniProt P00734)
Substance	target	assay	system	setting	scale	measurement	value
GGTTGGTGTGGTTGG (2'F-ANA at 1 2 3 5 6 7 11 15)	F2 mature alpha-thrombin	aptamer microarray, sandwich	DNA with 2'F-ANA, in vitro	200 nM, whole 15-mer aptamer, many near background, added: Cy3 exosite-II aptamer, 400 nM	higher = stronger binding	mean fluorescence intensity	59.5 a.u.
PhoQ, residues 284 288 289 292 302 303 SLANIV	PhoP, residues 12 14 15 18 19 IQSYL (Escherichia coli, UniProt P23836)	Sort-seq, measured: YFP reporter	E. coli	PhoQ-PhoP variant library, added: 10 µM Mg2+	baseline: high Mg2+ state, higher = stronger signaling	fold induction	45.9
GGTTGGTGTGGTTGG (2'F-ANA at 3 4 5 6 7 8 12 13 14 15)	F2 mature alpha-thrombin	aptamer microarray, sandwich	DNA with 2'F-ANA, in vitro	200 nM, whole 15-mer aptamer, many near background, added: Cy3 exosite-II aptamer, 400 nM	higher = stronger binding	mean fluorescence intensity	59.2 a.u.

Repeated from above (sample 2):
Sequence	E-score
CATAGCGC	0.124
